Measurements from different studies.
Protocols differ between the studies behind these lines. Values joined by “and” are separate records of one study, mostly repeats; a detail may differ. Numbers after ± are the reported error.
SLCO1B3: Solute carrier organic anion transporter family member 1B3 (SLCO1B3, Homo sapiens, UniProt Q9NPD5)
Sequence of UniProt Q9NPD5 (whole entry, looked up): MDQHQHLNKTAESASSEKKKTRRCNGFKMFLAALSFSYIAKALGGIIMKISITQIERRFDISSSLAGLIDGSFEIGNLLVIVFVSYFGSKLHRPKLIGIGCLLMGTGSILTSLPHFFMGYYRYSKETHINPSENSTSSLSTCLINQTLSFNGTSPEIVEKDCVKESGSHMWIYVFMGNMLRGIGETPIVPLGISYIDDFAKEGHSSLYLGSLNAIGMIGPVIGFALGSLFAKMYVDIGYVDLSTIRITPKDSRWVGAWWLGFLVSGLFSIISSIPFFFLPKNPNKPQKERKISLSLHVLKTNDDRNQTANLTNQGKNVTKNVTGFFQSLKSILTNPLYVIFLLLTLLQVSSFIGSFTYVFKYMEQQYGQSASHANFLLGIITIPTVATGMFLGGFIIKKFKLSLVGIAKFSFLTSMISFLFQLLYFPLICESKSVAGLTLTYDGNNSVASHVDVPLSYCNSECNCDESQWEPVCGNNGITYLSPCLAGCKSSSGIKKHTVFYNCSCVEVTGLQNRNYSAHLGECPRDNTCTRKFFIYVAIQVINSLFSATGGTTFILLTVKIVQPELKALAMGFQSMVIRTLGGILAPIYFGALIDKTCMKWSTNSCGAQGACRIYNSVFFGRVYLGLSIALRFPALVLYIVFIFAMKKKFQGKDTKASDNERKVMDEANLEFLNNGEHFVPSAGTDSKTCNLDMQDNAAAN
SLC22A2: Solute carrier family 22 member 2 (SLC22A2, Homo sapiens, UniProt O15244)
Sequence of UniProt O15244 (whole entry, looked up): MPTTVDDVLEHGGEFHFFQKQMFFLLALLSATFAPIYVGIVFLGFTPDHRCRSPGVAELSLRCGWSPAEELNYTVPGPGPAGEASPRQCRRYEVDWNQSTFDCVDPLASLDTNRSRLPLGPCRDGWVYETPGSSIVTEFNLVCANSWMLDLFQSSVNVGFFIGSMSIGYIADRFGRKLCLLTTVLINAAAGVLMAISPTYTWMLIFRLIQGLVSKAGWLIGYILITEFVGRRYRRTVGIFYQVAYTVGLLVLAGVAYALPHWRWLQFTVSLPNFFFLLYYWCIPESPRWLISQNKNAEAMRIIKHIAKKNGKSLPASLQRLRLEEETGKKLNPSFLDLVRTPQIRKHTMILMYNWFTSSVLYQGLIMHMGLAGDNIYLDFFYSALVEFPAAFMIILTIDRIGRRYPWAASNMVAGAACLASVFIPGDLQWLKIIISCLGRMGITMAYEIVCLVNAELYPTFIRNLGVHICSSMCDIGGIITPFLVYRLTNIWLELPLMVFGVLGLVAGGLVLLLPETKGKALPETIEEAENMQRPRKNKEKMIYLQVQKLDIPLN
Sequence of UniProt P08684 (whole entry, looked up): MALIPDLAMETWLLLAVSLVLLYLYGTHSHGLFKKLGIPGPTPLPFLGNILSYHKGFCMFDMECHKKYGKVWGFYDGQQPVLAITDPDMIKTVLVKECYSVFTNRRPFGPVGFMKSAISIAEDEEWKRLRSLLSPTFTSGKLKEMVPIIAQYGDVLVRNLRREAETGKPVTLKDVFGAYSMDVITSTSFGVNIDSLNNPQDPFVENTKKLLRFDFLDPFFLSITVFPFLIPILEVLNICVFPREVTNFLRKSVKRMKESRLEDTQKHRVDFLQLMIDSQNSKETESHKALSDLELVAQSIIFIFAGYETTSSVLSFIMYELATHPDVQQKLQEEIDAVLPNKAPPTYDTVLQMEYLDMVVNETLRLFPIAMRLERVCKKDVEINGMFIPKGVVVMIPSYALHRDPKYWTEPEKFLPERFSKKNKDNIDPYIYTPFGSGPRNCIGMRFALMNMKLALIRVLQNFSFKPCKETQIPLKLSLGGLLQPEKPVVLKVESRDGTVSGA
Sequence of UniProt Q96NY8 (whole entry, looked up): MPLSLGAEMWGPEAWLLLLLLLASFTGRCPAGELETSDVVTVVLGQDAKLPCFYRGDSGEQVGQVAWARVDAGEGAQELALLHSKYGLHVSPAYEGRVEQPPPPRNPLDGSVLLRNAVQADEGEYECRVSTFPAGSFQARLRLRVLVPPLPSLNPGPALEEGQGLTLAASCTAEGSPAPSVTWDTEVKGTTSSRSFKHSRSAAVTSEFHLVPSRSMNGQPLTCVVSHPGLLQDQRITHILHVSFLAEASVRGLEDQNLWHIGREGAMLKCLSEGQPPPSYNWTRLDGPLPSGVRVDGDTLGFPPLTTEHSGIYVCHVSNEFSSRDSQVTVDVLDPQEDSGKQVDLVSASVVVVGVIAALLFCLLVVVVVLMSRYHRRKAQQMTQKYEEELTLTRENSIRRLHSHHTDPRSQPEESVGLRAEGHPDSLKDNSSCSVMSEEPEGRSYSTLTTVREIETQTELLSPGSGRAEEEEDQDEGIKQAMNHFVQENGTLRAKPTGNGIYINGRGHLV
Sequence of UniProt Q07011 (whole entry, unmodified, looked up): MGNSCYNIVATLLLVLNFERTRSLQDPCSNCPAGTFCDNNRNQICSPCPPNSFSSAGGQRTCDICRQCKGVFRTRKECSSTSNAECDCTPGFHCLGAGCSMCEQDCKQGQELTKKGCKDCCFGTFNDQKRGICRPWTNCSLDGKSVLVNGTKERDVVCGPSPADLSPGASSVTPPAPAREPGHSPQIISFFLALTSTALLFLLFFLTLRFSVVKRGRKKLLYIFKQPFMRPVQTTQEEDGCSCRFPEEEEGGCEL

CCCCCCCCCCCC(=O)C(C)C(=O)N1CCC[C@H]1C(=O)NC(C)(C)C(=O)NC(C)(C)C(=O)NC(C)(C)C(=O)N[C@](C)(CC)C(=O)NCCC(=O)N[C@@H](C)C(=O)N[C@](C)(CC)C(=O)N[C@@H](C)C(=O)N[C@@H](CC(C)C)C(=O)N[C@](C)(CC)C(=O)NCCC(=O)N[C@@H](C)C(=O)N[C@](C)(CC)C(=O)NCCC(=O)N[C@@H](C)C(=O)NC(C)(C)C(=O)NC(C)(C)C(=O)NC(C)(C)C(=O)N[C@@H](C)C(=O)N[C@@H](CC(=O)O)C(=O)O (some centres unmarked) — remaining intact peptide (trypsin; LC-MS; 40 µM, 60 min, pH 7.5, 37 °C; baseline: 0 h): 79.9%
CC(C)=CCC/C(C)=C/CCn1cc(CC(C)(P(=O)(O)O)P(=O)(O)O)nn1 — cellular uptake (SLCO1B3; OATP1B3-transfected cells; 50 µM, 5 min, pH 7.4; baseline: mock-transfected cells): 3.5 fold
CC[C@H](C)[C@@H]1NC(=O)[C@H]([C@@H](C)O)NC(=O)CNC(=O)[C@H](CCCNC(=N)N)NC(=O)[C@H](CC(C)C)NC(=O)[C@@H]2CSSC[C@H](NC1=O)C(=O)N[C@H](C(=O)N[C@@H](CO)C(=O)NCC(N)=O)CSSC[C@H](NC(=O)[C@H](C)N)C(=O)N[C@@H](C)C(=O)N[C@@H](Cc1c[nH]c3ccccc13)C(=O)N2 — cleavage (Chymotrypsinogen A, activated (alpha-chymotrypsin) (Bos taurus, UniProt P00766); substrate, RP-HPLC/ESI-MS; 30 µM, 32 h, pH 7.4, 37 °C, PBS, ratio 1:100, with: bovine α-chymotrypsin 300 nM): 60%
CCCCCCCC/C=C/CCCCCCCC(=O)[O][Pt-2]1([OH])([Cl])([NH+]=C(CC)N(C)CCNc2c3ccccc3[nH+]c3ccccc23)[NH]CCC[NH]1.O=[N+]([O-])O.O=[N+]([O-])O — Kd (Albumin (ALB, Homo sapiens, UniProt P02768); binding, fluorescence titration; pH 7.4, recombinant human albumin): 1.8 µM
CC(=O)NCCCC[C@@H]1NC(=O)[C@H](Cc2c[nH]c3c(C)cccc23)NC(=O)[C@H]([C@@H](C)O)NC(=O)[C@H](CC(N)=O)NC(=O)[C@@H](NC(C)=O)C(C)(C)SSC(C)(C)[C@@H](C(=O)N[C@@H](Cc2ccc(OCCN)cc2)C(=O)N[C@@H](Cc2ccc3ccccc3c2)C(=O)NC2(C(=O)N[C@@H](CCC(=O)O)C(=O)N[C@@H](CC(N)=O)C(=O)N[C@@H](Cc3cccnc3)C(=O)N(C)CC(N)=O)CCOCC2)NC1=O — uptake rate (SLC22A2; substrate; HEK293 expressing SLC22A2; 5 µM, 30 min): 0.449 ± 0.094 pmol/mg/min
CNC(=O)C1CCCN(C(=O)C2CC3CCC2N3C(=O)[C@@H]2C[C@@H](O)CN2C(=O)NCc2cccc(Cl)c2F)C1 (mixture of isomers) — remaining activity (CYP3A4 (human); inhibitor, time-dependent inhibition; 16.7 µM, preincubated with NADPH, with: midazolam substrate; baseline: negative control): 100%
CC[C@H](C)[C@@H]1NC(=O)[C@H](CO)NC(=O)C(C)(CCCCN)NC(=O)[C@@H]2CSSC[C@@H](C(=O)N[C@@H](Cc3ccc(O)cc3)C(N)=O)NC(=O)[C@H](CCCCN)NC(=O)[C@@H]3CSSC[C@H](NC(=O)[C@H](CCCNC(=N)N)NC(=O)C(C)(CC(C)C)NC(=O)[C@H](CC(=O)O)NC(=O)[C@H](CC(=O)O)NC(=O)[C@H](CCC(=O)O)NC(=O)[C@H](CC(N)=O)NC(=O)[C@H](Cc4c[nH]c5ccccc45)NC(=O)C(C)(CC)NC(=O)CNC(=O)[C@H](CC(N)=O)NC(=O)[C@@H](NC(=O)CNC(=O)[C@H](Cc4ccccc4)NC(=O)CN)CSSC[C@H](NC(=O)[C@H](Cc4ccc(O)cc4)NC(=O)CNC(=O)CNC(=O)[C@H](CCCCN)NC(=O)[C@H](Cc4ccc(O)cc4)NC(=O)[C@H]4CCCN4C(=O)[C@@H]4CCCN4C1=O)C(=O)N[C@@H](C)C(=O)N[C@@H](CCCCN)C(=O)N1CCC[C@@H]1C(=O)NCC(=O)N[C@@H](Cc1ccccc1)C(=O)N[C@@H](C(C)C)C(=O)N3)C(=O)N[C@@H](Cc1c[nH]cn1)C(=O)NC(C)(C)C(=O)N[C@@H](Cc1c[nH]cn1)C(=O)N2 (some centres unmarked) — percent degraded (trypsin; peptide degradation, HPLC; NH4HCO3 CaCl2 buffer; 13.2 µM, 24 h, pH 8.5, room temperature): < 25%
Cc1cc(-c2ccc3ccccc3c2)nnc1NCCN1CCN(C)CC1 — inhibition (SLCO1B3; transport; concentration not given): negative
CCCC[C@@H]1NC(=O)[C@H](Cc2ccc(O)cc2)NC(=O)[C@@H]2CCCN2C(=O)[C@H](CC(=O)O)NC(=O)[C@H](C)NC(=O)[C@H](Cc2ccccc2)NC(=O)[C@@H]2CSCCC(=O)N3CN(CN(C3)C(=O)CCSC[C@@H](C(=O)N[C@@H](C)C(N)=O)NC1=O)C(=O)CCSC[C@H](NC(C)=O)C(=O)N[C@@H](CC(C)(C)C)C(=O)N1CCC[C@H]1C(=O)N[C@@H](CCC(=O)O)C(=O)N[C@H](CCCCNC(=O)CCc1cn(CCOCCOCCOCCN(CCOCCOCCOCCC(=O)N[C@H]3CSCCC(=O)N4CN5CN(C4)C(=O)CCSC[C@H](NC(=O)[C@@H](CC(=O)O)NC(=O)[C@H](Cc4cccc6ccccc46)NC(=O)[C@@H]4CCCN4C3=O)C(=O)N[C@@H](CCSC)C(=O)N[C@@H](CCCCNC(=N)N)C(=O)N[C@@H](CC(=O)O)C(=O)N[C@@H](Cc3c[nH]c4ccccc34)C(=O)N[C@@H](CO)C(=O)N[C@@H]([C@@H](C)O)C(=O)N3CCC[C@H]3C(=O)N3C[C@H](O)C[C@H]3C(=O)N[C@@H](Cc3c[nH]c4ccccc34)C(=O)N[C@H](C(N)=O)CSCCC5=O)CCOCCOCCOCCn3cc(CCC(=O)NCCCC[C@H]4NC(=O)[C@H](CCC(=O)O)NC(=O)[C@@H]5CCCN5C(=O)[C@H](CC(C)(C)C)NC(=O)[C@@H](NC(C)=O)CSCCC(=O)N5CN6CN(C5)C(=O)CCSC[C@H](NC(=O)[C@H](Cc5ccc(O)cc5)NC(=O)[C@@H]5CCCN5C4=O)C(=O)N[C@@H](Cc4ccccc4)C(=O)N[C@@H](C)C(=O)N[C@@H](CC(=O)O)C(=O)N4CCC[C@H]4C(=O)N[C@@H](Cc4ccc(O)cc4)C(=O)N[C@@H](CCCC)C(=O)N[C@H](C(=O)N[C@@H](C)C(N)=O)CSCCC6=O)nn3)nn1)C(=O)N1CCC[C@H]1C(=O)N[C@@H](Cc1ccc(O)cc1)C(=O)N2 — Emax (Tumor necrosis factor receptor superfamily member 9/Nectin-4 (Homo sapiens, UniProt Q07011+Q96NY8); reporter gene, agonist, luciferase reporter; CD137 Jurkat reporter with HT-1376; 6 h, geometric mean; baseline: wells without compound): 54 fold
CCN(CC)CCOc1ccc(-c2nnn(Cc3ccc(OC)cc3)c2N)cc1 — IC50 (CYP3A; inhibitor): > 50 µM
CNC(=O)C1OC(n2cnc3c(NCc4cccc(I)c4)ncnc32)C(O)C1O (centres unmarked) — inhibition (SLC22A2; transport, inhibitor; transiently transfected cells; 100 µM, 10 (unit not given), with: metformin): 68.3%
O=C1NC2(CC2)COc2ncc(F)cc2[C@H]2COCCN2c2ccn3ncc1c3n2 — organ-to-body weight ratio (Sprague-Dawley rat, female, thymus; oral, 2.5 mg/kg/day, 4 weeks, end of treatment): 0.18 ± 0.027%
Cc1ccc(N(C)C2CN(C)C2)cc1C(=O)N[C@H](C)c1cc(-c2cnn(C)c2)nc2ccccc12 — viability (Vero E6; 31.25 µM): 91.6% and 93.3% and 91.8%
CC[C@H](C)[C@@H]1NC(=O)[C@H](CC(C)C)NC(=O)[C@@H](NC(=O)[C@H](CCCNC(=N)N)NC(=O)[C@@H](NC(=O)CNC(=O)[C@@H]2CCCN2C(=O)[C@@H]2CCC(=O)NCC(=O)N[C@@H](CO)C(=O)N[C@@H](CCCNC(=N)N)C(=O)NCC(=O)N[C@@H](Cc3c[nH]c4ccccc34)C(=O)NCC(=O)N[C@@H](Cc3ccccc3)C(=O)N2)C(C)C)CSSC[C@@H](C(=O)N[C@@H](CC(=O)O)C(=O)O)NC(=O)[C@H](Cc2c[nH]c3ccccc23)NC1=O — proteolytic stability (carboxypeptidase B; substrate, LC-MS; 20 h, room temperature): stable
Cc1ccc(OCC2CN(C)C2)cc1C(=O)N[C@H](C)c1cc(-c2cnn(C)c2)nc2ccccc12 — viability (Vero E6; 125 µM): 4.46% and 6.96% and 3.21%
O=C(CN1C(=O)C2(CCN(C(=O)c3cnc4[nH]ncc4c3)CC2)c2c(Cl)cccc21)NCC(F)(F)F — IC50 (Cytochrome P450 3A4 (CYP3A4, Homo sapiens, UniProt P08684); enzyme activity, inhibitor): 33 µM
CC(C)C[C@H](NC(=O)[C@H](CC(C)C)NC(=O)[C@H](CCCCN)NC(=O)[C@H](Cc1ccccc1)NC(=O)[C@@H](NC(=O)[C@H](CCCNC(=N)N)NC(=O)[C@@H](N)CCCCN)C(C)C)C(=O)N[C@@H](CCCCN)C(=O)N[C@@H](CCCNC(=N)N)C(=O)N[C@@H](Cc1ccc(O)cc1)C(=O)N[C@@H](Cc1c[nH]c2ccccc12)C(=O)N[C@@H](CCCNC(=N)N)C(=O)N[C@@H](CCC(N)=O)C(=O)N[C@@H](CC(C)C)C(=O)N[C@@H](CCCCN)C(=O)N[C@@H](CCCCN)C(=O)N1CCC[C@H]1C(=O)N[C@H](C(=O)N[C@@H](CCCNC(=N)N)C(=O)NCCOCCOCC(=O)O)C(C)C — intact peptide remaining (Chymotrypsinogen A (Bos taurus, UniProt P00766); HPLC; 1 mg/mL, 6 h, 37 °C, with: enzyme to peptide 50:1): 32 to 35%

For quick reference, copied from above:
CCCCCCCCCCCC(=O)C(C)C(=O)N1CCC[C@H]1C(=O)NC(C)(C)C(=O)NC(C)(C)C(=O)NC(C)(C)C(=O)N[C@](C)(CC)C(=O)NCCC(=O)N[C@@H](C)C(=O)N[C@](C)(CC)C(=O)N[C@@H](C)C(=O)N[C@@H](CC(C)C)C(=O)N[C@](C)(CC)C(=O)NCCC(=O)N[C@@H](C)C(=O)N[C@](C)(CC)C(=O)NCCC(=O)N[C@@H](C)C(=O)NC(C)(C)C(=O)NC(C)(C)C(=O)NC(C)(C)C(=O)N[C@@H](C)C(=O)N[C@@H](CC(=O)O)C(=O)O (some centres unmarked) — remaining intact peptide (trypsin; LC-MS; 40 µM, 60 min, pH 7.5, 37 °C; baseline: 0 h): 79.9%
O=C1NC2(CC2)COc2ncc(F)cc2[C@H]2COCCN2c2ccn3ncc1c3n2 — organ-to-body weight ratio (Sprague-Dawley rat, female, thymus; oral, 2.5 mg/kg/day, 4 weeks, end of treatment): 0.18 ± 0.027%
